Measurements pooled from the literature.
Lines come from different studies, so protocols differ. “And” joins repeats or separate records; there may be more than shown. ± marks the error that the study gave.
HTR1A: 5-hydroxytryptamine receptor 1A (HTR1A, Homo sapiens, UniProt P08908)
Sequence of UniProt P08908 (whole entry, looked up): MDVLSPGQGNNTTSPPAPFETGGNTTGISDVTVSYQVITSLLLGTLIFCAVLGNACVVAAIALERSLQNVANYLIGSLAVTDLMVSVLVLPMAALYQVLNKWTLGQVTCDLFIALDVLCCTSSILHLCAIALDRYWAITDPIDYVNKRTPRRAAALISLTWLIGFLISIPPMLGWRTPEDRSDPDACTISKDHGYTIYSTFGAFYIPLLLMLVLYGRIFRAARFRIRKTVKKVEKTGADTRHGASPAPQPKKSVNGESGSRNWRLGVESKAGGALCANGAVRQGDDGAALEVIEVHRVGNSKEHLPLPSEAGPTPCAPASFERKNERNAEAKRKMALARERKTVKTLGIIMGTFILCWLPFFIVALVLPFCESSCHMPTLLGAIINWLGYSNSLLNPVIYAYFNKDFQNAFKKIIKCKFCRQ
Urease subunit alpha: Urease subunit alpha (Sporosarcina pasteurii, UniProt P41020)
Sequence of UniProt P41020 (whole entry, looked up): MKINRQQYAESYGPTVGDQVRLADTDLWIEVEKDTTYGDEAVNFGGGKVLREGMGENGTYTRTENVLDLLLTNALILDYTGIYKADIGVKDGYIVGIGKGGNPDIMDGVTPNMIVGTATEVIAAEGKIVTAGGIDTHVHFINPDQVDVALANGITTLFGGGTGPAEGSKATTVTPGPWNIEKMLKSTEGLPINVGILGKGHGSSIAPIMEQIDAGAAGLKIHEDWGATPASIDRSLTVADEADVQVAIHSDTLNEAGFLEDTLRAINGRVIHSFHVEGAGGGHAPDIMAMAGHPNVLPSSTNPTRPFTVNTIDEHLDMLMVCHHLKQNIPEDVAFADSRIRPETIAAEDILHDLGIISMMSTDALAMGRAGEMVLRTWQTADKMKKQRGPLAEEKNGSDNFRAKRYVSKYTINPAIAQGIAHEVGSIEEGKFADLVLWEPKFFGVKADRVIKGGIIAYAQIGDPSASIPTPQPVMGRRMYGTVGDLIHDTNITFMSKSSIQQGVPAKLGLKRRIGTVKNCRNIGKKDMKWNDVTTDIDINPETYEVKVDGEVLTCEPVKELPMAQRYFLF
MAL12: Alpha-glucosidase MAL12 (MAL12, Saccharomyces cerevisiae S288c, UniProt P53341)
Sequence of UniProt P53341 (whole entry, looked up): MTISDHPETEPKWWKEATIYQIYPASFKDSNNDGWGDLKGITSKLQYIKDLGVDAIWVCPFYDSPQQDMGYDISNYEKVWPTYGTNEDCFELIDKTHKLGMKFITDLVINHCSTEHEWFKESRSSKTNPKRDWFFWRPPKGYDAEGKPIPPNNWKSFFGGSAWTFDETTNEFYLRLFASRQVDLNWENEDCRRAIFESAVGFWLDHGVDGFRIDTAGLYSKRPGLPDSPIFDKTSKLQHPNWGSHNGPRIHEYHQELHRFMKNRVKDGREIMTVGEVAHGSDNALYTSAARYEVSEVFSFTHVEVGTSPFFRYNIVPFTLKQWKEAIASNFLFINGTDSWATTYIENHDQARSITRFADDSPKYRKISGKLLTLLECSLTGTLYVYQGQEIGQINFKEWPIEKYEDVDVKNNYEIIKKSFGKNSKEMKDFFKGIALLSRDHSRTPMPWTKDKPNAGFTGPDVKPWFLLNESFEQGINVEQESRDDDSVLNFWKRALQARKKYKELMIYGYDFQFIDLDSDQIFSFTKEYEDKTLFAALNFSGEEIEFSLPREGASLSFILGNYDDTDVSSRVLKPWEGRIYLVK
DRD5: D(1B) dopamine receptor (DRD5, Homo sapiens, UniProt P21918)
Sequence of UniProt P21918 (whole entry, looked up): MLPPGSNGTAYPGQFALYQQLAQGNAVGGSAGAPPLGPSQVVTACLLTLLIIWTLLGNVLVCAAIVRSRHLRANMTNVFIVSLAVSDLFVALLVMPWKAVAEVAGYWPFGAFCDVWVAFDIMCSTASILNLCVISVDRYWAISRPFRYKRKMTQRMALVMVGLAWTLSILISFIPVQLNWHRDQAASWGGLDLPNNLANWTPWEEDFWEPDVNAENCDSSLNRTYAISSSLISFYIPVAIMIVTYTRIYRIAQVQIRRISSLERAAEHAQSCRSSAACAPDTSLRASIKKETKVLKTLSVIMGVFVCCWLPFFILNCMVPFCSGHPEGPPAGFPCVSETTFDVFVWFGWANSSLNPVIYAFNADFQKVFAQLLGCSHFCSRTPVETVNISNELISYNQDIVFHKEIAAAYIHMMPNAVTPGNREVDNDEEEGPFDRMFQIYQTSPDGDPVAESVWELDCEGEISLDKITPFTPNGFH
HTR4: 5-hydroxytryptamine receptor 4 (HTR4, Homo sapiens, UniProt Q13639)
Sequence of UniProt Q13639 (whole entry, looked up): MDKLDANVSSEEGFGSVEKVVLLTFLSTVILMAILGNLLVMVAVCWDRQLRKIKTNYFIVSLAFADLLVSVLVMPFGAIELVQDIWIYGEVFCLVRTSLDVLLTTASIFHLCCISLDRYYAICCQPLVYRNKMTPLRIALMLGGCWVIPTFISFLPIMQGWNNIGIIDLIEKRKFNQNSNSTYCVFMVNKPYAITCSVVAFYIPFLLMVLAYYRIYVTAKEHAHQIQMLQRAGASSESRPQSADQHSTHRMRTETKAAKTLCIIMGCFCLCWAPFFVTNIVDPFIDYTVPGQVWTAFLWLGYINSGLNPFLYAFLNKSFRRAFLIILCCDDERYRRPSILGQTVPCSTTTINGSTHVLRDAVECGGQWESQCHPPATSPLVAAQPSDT
Sequence of UniProt Q02750 (whole entry, looked up): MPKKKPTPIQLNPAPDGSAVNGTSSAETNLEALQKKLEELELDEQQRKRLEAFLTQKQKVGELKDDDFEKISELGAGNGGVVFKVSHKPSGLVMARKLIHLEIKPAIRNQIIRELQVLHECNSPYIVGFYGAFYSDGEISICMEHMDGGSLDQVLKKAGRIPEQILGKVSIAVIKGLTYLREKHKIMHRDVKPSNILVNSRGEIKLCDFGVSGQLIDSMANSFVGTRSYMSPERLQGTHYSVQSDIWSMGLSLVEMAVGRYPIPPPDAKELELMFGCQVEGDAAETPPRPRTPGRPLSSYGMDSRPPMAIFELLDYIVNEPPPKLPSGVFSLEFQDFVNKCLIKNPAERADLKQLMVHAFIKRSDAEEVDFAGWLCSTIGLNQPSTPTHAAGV
Sequence of UniProt Q8N884 (whole entry, looked up): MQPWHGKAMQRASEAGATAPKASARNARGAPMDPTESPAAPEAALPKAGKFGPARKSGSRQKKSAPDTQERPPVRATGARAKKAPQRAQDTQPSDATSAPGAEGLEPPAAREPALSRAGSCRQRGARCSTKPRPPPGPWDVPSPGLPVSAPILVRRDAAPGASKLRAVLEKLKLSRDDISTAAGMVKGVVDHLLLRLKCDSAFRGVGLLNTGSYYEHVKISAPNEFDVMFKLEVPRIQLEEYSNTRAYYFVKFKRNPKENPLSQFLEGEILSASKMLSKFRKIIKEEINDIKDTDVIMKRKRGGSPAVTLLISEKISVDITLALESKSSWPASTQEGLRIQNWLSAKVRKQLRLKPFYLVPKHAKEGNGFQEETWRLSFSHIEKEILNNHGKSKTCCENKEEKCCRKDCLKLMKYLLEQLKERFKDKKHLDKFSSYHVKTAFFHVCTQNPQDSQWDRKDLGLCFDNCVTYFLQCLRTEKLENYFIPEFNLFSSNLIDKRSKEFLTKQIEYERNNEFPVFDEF
Sequence of UniProt Q96L34 (whole entry, looked up): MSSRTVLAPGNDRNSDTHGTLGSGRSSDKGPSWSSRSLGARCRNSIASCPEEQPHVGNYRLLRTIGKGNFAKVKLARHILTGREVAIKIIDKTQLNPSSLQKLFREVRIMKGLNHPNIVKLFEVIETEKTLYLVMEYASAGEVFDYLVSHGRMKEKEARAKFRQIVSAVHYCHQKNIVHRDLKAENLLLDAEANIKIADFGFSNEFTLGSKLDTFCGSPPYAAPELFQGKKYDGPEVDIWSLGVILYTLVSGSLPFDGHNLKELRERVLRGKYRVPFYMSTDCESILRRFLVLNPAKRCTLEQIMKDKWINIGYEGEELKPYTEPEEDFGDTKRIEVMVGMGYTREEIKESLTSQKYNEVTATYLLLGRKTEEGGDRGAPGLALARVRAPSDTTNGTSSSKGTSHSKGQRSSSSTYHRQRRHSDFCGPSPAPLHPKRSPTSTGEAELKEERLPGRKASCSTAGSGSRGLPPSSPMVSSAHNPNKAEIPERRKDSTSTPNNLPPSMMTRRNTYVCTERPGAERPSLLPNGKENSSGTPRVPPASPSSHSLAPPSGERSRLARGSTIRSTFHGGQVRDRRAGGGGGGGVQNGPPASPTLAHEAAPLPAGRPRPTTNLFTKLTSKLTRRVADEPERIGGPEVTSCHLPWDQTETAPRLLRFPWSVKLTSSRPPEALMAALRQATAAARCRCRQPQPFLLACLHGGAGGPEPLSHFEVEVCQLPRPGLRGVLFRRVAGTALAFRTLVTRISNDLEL
Sequence of UniProt O14920 (whole entry, looked up): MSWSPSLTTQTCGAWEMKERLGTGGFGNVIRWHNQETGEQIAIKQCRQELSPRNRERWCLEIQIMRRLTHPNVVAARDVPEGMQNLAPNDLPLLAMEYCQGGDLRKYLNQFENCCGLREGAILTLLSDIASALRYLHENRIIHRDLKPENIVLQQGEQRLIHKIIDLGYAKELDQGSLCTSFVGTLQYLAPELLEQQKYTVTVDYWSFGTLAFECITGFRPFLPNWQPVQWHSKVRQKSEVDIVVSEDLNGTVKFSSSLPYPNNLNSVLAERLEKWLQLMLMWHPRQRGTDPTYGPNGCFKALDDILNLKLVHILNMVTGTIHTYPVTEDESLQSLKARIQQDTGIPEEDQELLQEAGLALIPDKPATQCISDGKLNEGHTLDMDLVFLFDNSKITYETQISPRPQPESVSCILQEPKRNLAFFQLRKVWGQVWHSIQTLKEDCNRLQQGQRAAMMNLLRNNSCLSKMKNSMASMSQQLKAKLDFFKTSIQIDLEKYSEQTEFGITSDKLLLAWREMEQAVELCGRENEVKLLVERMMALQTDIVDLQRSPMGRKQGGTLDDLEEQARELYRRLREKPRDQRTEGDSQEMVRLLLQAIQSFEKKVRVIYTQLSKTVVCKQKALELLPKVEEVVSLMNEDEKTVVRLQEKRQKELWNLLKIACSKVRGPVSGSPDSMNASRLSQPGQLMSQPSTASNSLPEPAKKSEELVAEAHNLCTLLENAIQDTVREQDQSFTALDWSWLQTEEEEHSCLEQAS

For `c1cncc(OC[C@H]2CN(CCN3CCc4ccccc43)CCO2)c1`, the inhibition was 24.1% (HTR1A; radioligand binding; concentration not given, together with: [3H]8-OH-DPAT).
`Cn1cc(-c2cnc3ccc(NC(=O)Nc4ccc(F)c(Br)c4)cc3n2)cn1` gave an inhibition of 1.9% (IKBKB (Homo sapiens, UniProt O14920); kinase binding, KiNativ profiling, measured: Lys1 peptide; PANC-1 lysate; 5 µM).
With `COc1c(O)c(C)cc2c1C(=O)c1c(cc(O)c(O)c1O)C2=O` the cell viability was 89.2 ± 9.48% (HepaRG co-cultured with HK-2; MTT; 33.33 µM, 48 h; relative to: untreated control).
`Fc1ccc(/C=C/C=N/NC(=S)NC2CCCCC2)cc1` has an inhibition of 87.4% (Urease subunit alpha; enzyme activity, indophenol method; 500 µM).
For `O=c1ccc2ccc(O)c(Cn3ncc4ccccc43)c2o1`, the inhibition was less than 0% (MAL12; inhibitor; 25 µM).
`COc1ccccc1N1CCN(CCCCN2CCc3ccccc3C2=O)CC1` gave an inhibition of 101% (HTR1A; radioligand binding; concentration not given, together with: [3H]8-OH-DPAT).
`Oc1ccc(Cn2ccnc2)cc1` gave an inhibition of 9.9% (MAL12; inhibitor; 25 µM).
For `O=C(CN1CCO[C@H](COc2cccnc2)C1)N1CCc2ccccc21`, the inhibition was 21.7% (HTR1A; radioligand binding; concentration not given, together with: [3H]8-OH-DPAT).
With `CCN(CC)CCCC(C)Nc1ccnc2cc(Cl)ccc12` (centres unmarked) the confluence was 0.47 ± 0.05 (COS-7; 100 µM, 24 h, 0.1% DMSO, unit not given; relative to: control).
`Cc1ccc(OC[C@@H]2CN(CCN3CCc4ccccc43)CCO2)cn1` gave an inhibition of -2.7% (DRD5; radioligand binding; concentration not given, together with: [3H]SCH23390).
The inhibition of `Cc1cc2c(cc1N1C(=O)c3cccc4c(CCCO)ccc(c34)C1=O)n(C)c(=O)n2C` (racemic) is reported as 93% (Bromodomain testis-specific protein, BD1 (BRDT, Homo sapiens, UniProt Q58F21); binding, BROMOscan binding; 100 nM).
The inhibition of `OCCCN1CC[C@@H]2C[C@H]1c1cc(-c3ccc(C(F)(F)F)cc3)ccc12` is reported as less than 50% (DRD5; radioligand binding, PDSP competition binding; 10 µM).
`Cc1ccc(NC(=S)N/N=C/C=C/c2ccc(F)cc2)cc1` has an inhibition of 84.9% (Urease subunit alpha; enzyme activity, indophenol method; 500 µM).
`CC(C)Cc1ccc(-c2nn(-c3ccc(S(C)(=O)=O)cc3)cc2/C=N/N=c2\[nH]c(-c3ccc([N+](=O)[O-])cc3)cs2)cc1` has an inhibition of 94% (EGFR (Homo sapiens, UniProt P00533, L858R); kinase activity, inhibitor; 100 µM).
With `Cc1cc(-c2ccnc3[nH]cc(F)c23)cc(F)c1[C@@]1(O)[C@H](C)CN(C(=O)CN)C[C@@H]1C` the inhibition was 18% (AKT1 and AKT3; ATP probe binding, KiNativ, measured: Lys2 site; HEK293T cell lysate; 10 µM).
For `N#Cc1ccc([C@H]2CCc3cncn32)c(F)c1`, the inhibition was 36 ± 19% (Cytochrome P450 4V2 (CYP4V2, Homo sapiens, UniProt Q6ZWL3); 1 µM).
`COc1cc2c(c(O)c1OC)C(=O)c1c(cc(C)c(O)c1OC)C2=O` gave a cell viability of 99.8 ± 7.5% (HepaRG co-cultured with HK-2; MTT; 16.67 µM, 48 h; relative to: untreated control).
`CCCCCCCC(=O)c1c(O)cc(O)cc1CC(=O)OCC` has a necrotic cells of 0.63 ± 0.27 (COS-7; 10 µM, 24 h, 0.1% DMSO, unit not given; relative to: vehicle control).
The inhibition of `CN(C(=O)n1cnc(-c2ccc[n+]([O-])c2)c1)C1CCCCC1` is reported as -5.2% (HTR4; 10 µM).
`COc1ccc(F)cc1C(=O)NCc1ccc(-c2nn([C@@H](C)C(F)(F)F)c(N)c2C(N)=O)cc1` gave an inhibition of 3.8% (MAP2K1 (Homo sapiens, UniProt Q02750); target engagement, competitive chemoproteomics; human PBMCs; 1 µM).
For `C=CC[C@@H]1c2ccc(OC)c(OC)c2CN2CCc3cc4c(cc3[C@H]12)OCO4`, the inhibition was 78.7% (P2X purinoceptor 7 (Ailuropoda melanoleuca, UniProt G1M6C4); ATP-evoked current, whole-cell patch clamp; HEK293 (transfected); 10 µM, together with: ATP 1 mM).
With `O=C1c2ccccc2CCCN1CCCCN1CCN(c2ccccn2)CC1` the inhibition was 36.7% (DRD5; radioligand binding; concentration not given, together with: [3H]SCH23390).
For `O=C(NO)c1ccc(CN2CCCCc3ccccc32)c(F)c1`, the inhibition was -0.09% (DRD5; radioligand binding, radioligand displacement; 10 µM, mean of replicates).
The inhibition of `COc1ccc(-c2c(C)oc3c(Cn4ccnc4)c(O)ccc3c2=O)cc1` is reported as 12.8% (MAL12; inhibitor; 25 µM).
`O=c1oc(-c2ccco2)nc2ccccc12`: inhibition “no inhibition” (F12 (Homo sapiens, UniProt P00748); chromogenic substrate hydrolysis; up to 50 µM).
`COc1cccc(OC[C@@H]2CN(CCN3CCc4ccccc43)CCO2)c1` has an inhibition of 13.4% (HTR4; radioligand binding; concentration not given).
For `CC/C(=N\NC(=O)NCc1cccc(O)c1)c1ccc(O)c(C)c1O`, the inhibition was 0.1% (MAP2K5 (Homo sapiens, UniProt Q13163); kinase activity; 0.1 µM).
For `C[C@@H]1CCO[C@H]2Cn3cc(C(=O)NCc4ccc(F)cc4F)c(=O)c(O)c3C(=O)N12`, the inhibition was -4.75% (SLC29A4 (Homo sapiens, UniProt Q7RTT9); transport, inhibitor; MDCK-II PMAT-transfected; 10 µM, together with: MPP+ 10 µM).
With `Cc1nn(-c2nc3ccccc3s2)c(O)c1C(c1ccccc1C(=O)O)c1c(C)nn(-c2nc3ccccc3s2)c1O` the inhibition was 96.1% (CGAS (Homo sapiens, UniProt Q8N884); enzyme activity, inhibitor, pyrophosphatase-coupled; 50 µM, 1.5 h, together with: HT-DNA).
With `CC[C@@H]1[C@H](F)C(=O)N[C@@H]1COc1nccc2cc(C(N)=O)c(OC)cc12` the inhibition was 9.6% (MARK4 (Homo sapiens, UniProt Q96L34); ATP-site probe binding, ActivX profiling; THP-1 cell lysate; 0.01 mM, Lys2 site).
For `COc1cc(-c2cc(C(C)=O)n3ccccc23)cc(OC)c1Cn1ccnc1`, the inhibition was 42.3% (Bromodomain testis-specific protein, BD2 (BRDT, Homo sapiens, UniProt Q58F21); 1 µM).
For `CCc1oc2ccccc2c1C(=O)c1cc(Br)c(O)c(Br)c1`, the inhibition was 39.6% and 44.2% and 36.5% and 44.7% and 46.4% and 40.5% (SLC22A12 (Homo sapiens, UniProt Q96S37, M214A); urate uptake; HEK293T; 0.5 µM, 10 min, 37 °C, together with: 200 µM [14C]urate).
For `O=C(CN1CCO[C@H](COc2ccccc2)C1)N1CCc2ccccc21`, the inhibition was 8.3% (HTR4; radioligand binding; concentration not given).
`O=C(Nc1cccc2c(=O)cc(-c3nnn[nH]3)oc12)c1ccc(OCCCCc2ccccc2)cc1` gave an inhibition of 92.8% and 96.6% and 91.6% and 97% (Volume-regulated anion channel subunit LRRC8C, part LRRC8A IL1 chimera (LRRC8C, Homo sapiens, UniProt Q8TDW0, E6A); ion current, inhibitor, whole-cell patch clamp; HCT LRRC8-/- cells; 3 µM, +100 mV).
With `Cc1cc(-c2ccnc3[nH]cc(F)c23)cc(F)c1[C@@]1(O)[C@H](C)CN(C2CCS(=O)(=O)CC2)C[C@@H]1C` the inhibition was 2.8% (AKT1 and AKT3; ATP probe binding, KiNativ, measured: Lys1 site; HEK293T cell lysate; 0.1 µM).
The inhibition of `COc1cc(C(=O)NS(=O)(=O)c2ccccc2C)ccc1Cc1cn(C)c2ccc(NC(=O)OC3CCCC3)cc12` is reported as 30.2% and 42.3% and 57.9% and 26% and 32.6% (Volume-regulated anion channel subunit LRRC8C, part LRRC8A IL1 chimera (LRRC8C, Homo sapiens, UniProt Q8TDW0, C43G/S11C); ion current, inhibitor, whole-cell patch clamp; HCT LRRC8-/- cells; 10 µM, +100 mV).
With `c1ccc(OC[C@@H]2CN(CCN3CCc4ccccc43)CCO2)cc1` the inhibition was 79% (HTR1A; radioligand binding; concentration not given, together with: [3H]8-OH-DPAT).
For `COc1ccc(CN2C[C@](C)(O)[C@@H]3C[C@H]2[C@@H](C)c2nc4ccccc4c(-c4ccccc4)c23)cc1`, the inhibition was 2% (Mu-type opioid receptor (Cavia porcellus, UniProt A0ACM8Q262); binding, radioligand binding; guinea pig brain membranes; 1 µM, together with: [3H]DAMGO).

Repeated from above:
With `COc1c(O)c(C)cc2c1C(=O)c1c(cc(O)c(O)c1O)C2=O` the cell viability was 89.2 ± 9.48% (HepaRG co-cultured with HK-2; MTT; 33.33 µM, 48 h; relative to: untreated control).
For `O=c1ccc2ccc(O)c(Cn3ncc4ccccc43)c2o1`, the inhibition was less than 0% (MAL12; inhibitor; 25 µM).
The inhibition of `OCCCN1CC[C@@H]2C[C@H]1c1cc(-c3ccc(C(F)(F)F)cc3)ccc12` is reported as less than 50% (DRD5; radioligand binding, PDSP competition binding; 10 µM).
For `COc1ccc(CN2C[C@](C)(O)[C@@H]3C[C@H]2[C@@H](C)c2nc4ccccc4c(-c4ccccc4)c23)cc1`, the inhibition was 2% (Mu-type opioid receptor (Cavia porcellus, UniProt A0ACM8Q262); binding, radioligand binding; guinea pig brain membranes; 1 µM, together with: [3H]DAMGO).
With `O=C1c2ccccc2CCCN1CCCCN1CCN(c2ccccn2)CC1` the inhibition was 36.7% (DRD5; radioligand binding; concentration not given, together with: [3H]SCH23390).
